Published values pooled from the literature.
Each numbered part is a random draw from the data of one study; scales do not carry over between parts. Substitutions count along the parent as printed.
Sequence of UniProt Q92772 (whole entry, looked up): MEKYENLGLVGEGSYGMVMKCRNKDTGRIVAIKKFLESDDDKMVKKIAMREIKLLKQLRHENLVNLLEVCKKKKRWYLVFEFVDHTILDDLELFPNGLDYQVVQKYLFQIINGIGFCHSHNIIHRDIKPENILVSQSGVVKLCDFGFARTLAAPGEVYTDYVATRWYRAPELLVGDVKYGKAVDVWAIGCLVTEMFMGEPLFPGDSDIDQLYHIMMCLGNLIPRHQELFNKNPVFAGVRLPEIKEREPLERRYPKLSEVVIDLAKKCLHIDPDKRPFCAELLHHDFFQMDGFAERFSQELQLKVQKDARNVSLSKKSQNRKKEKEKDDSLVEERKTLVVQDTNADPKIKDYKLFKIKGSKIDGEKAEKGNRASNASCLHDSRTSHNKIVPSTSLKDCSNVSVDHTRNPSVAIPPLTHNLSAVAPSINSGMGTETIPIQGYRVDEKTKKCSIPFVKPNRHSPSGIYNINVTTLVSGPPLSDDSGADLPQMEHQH
Sequence of UniProt Q16288 (whole entry, looked up): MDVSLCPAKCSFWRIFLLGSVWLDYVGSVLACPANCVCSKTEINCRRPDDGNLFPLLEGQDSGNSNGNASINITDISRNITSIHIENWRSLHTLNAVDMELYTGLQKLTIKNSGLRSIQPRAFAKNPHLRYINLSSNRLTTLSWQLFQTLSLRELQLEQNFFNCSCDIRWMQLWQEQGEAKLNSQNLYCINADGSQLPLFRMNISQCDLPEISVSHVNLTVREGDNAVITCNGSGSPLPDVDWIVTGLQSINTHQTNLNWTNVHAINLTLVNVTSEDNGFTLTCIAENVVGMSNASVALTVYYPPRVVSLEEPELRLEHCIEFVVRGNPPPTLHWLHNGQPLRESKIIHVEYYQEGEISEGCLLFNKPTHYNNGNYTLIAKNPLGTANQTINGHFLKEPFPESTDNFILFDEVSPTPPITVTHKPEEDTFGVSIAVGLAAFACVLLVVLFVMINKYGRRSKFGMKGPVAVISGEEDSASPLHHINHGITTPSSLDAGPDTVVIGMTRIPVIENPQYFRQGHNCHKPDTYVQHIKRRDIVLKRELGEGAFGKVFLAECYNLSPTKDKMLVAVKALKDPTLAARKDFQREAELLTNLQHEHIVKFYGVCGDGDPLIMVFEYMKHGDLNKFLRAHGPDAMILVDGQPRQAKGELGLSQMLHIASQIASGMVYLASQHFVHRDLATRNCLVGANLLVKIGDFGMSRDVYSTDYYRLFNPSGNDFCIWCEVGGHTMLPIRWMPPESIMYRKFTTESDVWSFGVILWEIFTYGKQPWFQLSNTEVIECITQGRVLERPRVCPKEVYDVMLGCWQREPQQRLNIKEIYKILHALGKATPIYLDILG
Sequence of UniProt P42336 (whole entry, unmodified, looked up): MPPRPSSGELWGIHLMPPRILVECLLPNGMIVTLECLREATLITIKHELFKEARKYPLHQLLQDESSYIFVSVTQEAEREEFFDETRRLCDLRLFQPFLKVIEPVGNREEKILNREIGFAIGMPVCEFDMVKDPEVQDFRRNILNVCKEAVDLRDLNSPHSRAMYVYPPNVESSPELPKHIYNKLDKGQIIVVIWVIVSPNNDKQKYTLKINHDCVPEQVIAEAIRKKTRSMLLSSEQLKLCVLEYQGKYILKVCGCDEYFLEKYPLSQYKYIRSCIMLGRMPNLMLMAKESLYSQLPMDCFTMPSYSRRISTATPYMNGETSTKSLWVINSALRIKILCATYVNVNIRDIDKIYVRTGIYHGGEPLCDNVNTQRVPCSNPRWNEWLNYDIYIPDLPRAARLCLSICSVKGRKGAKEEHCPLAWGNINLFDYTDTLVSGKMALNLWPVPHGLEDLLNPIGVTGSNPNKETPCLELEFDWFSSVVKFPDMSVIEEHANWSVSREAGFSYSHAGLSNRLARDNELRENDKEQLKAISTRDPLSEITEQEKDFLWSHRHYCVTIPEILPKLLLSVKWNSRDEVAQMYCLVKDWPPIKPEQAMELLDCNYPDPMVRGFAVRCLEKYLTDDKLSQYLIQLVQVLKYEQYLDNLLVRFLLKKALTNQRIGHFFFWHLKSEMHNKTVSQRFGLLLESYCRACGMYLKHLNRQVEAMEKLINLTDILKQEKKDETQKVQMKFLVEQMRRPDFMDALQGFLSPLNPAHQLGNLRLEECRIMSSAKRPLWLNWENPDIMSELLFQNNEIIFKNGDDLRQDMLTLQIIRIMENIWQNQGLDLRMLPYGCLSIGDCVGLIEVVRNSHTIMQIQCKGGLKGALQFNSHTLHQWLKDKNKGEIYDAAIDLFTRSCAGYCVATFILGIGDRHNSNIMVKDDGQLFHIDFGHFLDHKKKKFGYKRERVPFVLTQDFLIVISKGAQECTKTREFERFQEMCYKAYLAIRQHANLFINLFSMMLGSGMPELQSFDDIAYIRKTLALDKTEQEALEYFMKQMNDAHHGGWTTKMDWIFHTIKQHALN
Sequence of UniProt O15146 (whole entry, looked up): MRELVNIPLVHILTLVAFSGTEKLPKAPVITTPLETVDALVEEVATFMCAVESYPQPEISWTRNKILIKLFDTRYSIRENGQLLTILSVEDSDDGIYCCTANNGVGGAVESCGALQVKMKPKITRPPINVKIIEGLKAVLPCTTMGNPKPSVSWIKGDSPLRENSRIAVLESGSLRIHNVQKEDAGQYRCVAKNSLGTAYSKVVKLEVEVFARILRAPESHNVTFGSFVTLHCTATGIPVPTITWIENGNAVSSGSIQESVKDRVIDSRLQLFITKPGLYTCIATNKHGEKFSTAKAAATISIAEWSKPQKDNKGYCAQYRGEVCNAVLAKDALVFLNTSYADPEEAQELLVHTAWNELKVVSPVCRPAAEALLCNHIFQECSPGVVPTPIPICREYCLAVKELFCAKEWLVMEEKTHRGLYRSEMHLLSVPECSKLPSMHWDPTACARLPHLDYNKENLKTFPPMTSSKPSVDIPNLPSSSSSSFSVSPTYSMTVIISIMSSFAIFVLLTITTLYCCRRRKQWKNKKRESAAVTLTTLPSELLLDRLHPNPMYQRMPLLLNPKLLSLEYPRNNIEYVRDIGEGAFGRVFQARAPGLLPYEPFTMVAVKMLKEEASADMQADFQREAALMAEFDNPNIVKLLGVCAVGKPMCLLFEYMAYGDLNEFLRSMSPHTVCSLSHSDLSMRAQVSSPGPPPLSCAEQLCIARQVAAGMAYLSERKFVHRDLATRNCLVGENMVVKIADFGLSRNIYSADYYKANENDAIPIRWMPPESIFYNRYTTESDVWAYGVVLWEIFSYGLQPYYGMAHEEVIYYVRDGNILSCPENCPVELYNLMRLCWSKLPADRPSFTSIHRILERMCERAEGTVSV
Sequence of UniProt P45983 (whole entry, looked up): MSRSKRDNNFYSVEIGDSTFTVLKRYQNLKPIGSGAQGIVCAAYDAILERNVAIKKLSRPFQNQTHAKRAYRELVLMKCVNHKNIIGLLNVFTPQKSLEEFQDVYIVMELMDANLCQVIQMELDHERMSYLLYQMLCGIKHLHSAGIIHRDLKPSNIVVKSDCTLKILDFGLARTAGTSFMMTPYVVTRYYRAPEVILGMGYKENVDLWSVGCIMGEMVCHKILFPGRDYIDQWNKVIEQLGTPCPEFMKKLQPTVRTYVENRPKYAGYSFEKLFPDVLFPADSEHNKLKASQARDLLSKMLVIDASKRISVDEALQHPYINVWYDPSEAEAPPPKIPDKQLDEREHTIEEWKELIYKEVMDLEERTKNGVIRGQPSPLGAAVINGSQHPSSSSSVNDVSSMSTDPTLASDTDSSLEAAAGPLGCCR
Sequence of UniProt Q8NI60 (whole entry, looked up): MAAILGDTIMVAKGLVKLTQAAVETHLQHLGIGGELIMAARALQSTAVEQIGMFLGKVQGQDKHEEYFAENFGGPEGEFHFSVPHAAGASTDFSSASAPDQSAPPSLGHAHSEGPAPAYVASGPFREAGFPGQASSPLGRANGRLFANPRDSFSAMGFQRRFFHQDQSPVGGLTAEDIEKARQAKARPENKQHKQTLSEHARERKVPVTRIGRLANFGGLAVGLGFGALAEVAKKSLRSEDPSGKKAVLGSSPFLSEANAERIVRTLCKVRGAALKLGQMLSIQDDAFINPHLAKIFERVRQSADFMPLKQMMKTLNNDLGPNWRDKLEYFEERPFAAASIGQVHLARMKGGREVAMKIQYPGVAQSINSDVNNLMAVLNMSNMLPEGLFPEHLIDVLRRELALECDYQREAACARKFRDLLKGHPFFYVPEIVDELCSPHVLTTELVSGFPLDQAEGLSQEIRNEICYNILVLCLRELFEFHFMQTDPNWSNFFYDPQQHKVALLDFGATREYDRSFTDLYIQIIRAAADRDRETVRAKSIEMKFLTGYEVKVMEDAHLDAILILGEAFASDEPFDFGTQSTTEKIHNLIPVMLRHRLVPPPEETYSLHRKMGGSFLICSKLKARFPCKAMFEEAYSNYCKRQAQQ

Series 1 — technique: RNA Bind-n-Seq; molecule type: RNA; sample: in vitro; tested at: 365 nM; baseline: no-protein control; reading: higher = stronger binding; endpoint: RBNS enrichment (R)
Target: RNA binding protein fox-1 homolog 2, RRM domain, GST-SBP tag (RBFOX2, Homo sapiens, UniProt O43251-10, residues 100-194)
Notes: natural RNA segment, single round, ends assumed
Residues (chain): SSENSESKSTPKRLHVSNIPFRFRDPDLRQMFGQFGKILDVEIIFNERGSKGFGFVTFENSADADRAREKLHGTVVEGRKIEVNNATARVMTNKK
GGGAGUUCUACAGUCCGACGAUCAUGGUUAAAAUCGGUUUGAUAGCACCAUGGGACAUUUUUCUAACAAAAAUAAAUGCAUGAAGAGACAUAGCCUUUUAGUUUUGCUAAUUGUGAAAUGGAAAUGCUUUACAUGGAAUUCUCGGGUGCCAA: 2.47
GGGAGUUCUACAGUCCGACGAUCCGUCCUUCAGCGAGCUCUACCUGCCGUCCACUAGAGCCAGGUACCCAUACGAGGAGCCCACCGUCCCUGUCCCUCGAGGUCACGUCCCACCGCUGCACUAAGGACUCACGUGGAAUUCUCGGGUGCCAA: 0.462
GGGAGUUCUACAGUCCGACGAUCAAUUGUACUGGCUGUUGACCACCAGACACCUGACUGCAAAUAUCUUUUCUUGUAUUCCCAUAUUUCUAGACAAUGAUUUUUGUAAGACAAUAAAUUUAUUCAUUAUAGAUUGGAAUUCUCGGGUGCCAA: 0.253
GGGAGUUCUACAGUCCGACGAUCUUGACCUGGUCCCCCACGUGUGAAGUGUAGUGGCAUCCAUUUCUAAUGUAUGCAUUCAUCCAACAGAGUUAUUUAUUGGCUGGAGAUGGAAAAUCACACCACCUGACAGGUGGAAUUCUCGGGUGCCAA: 0.489
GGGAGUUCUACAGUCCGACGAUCACUGUAAAGACACUGCUGUCUCCUUAAUAUGCUCCUUAACACGUAUGUUGAUGUAGCAUCAUUUUGUGGAUAGGAAAAAAAAUGUUUGACCUUCAGAUAUUUUCUACUUAUGGAAUUCUCGGGUGCCAA: 0.371
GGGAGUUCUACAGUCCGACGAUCAAAUAACUAUCUCACAUAGCGCUUCUAAUUUGCCGCGUGUGAGGGGAGCAUUCUGGGAUGGUUUUGUUUCUCCCUUUUUGUGCCGAAUGGAGAAUAAAAUACUUCAAACGUGGAAUUCUCGGGUGCCAA: 0.308
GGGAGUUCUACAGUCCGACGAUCUGUUCAUAAUUGCCAAAGCAGUAUUUAUACUAUUGUAAACAACUCGCACAUCUCUCCUGUCUGUUAGUAGUAAGAAUACAGGGAAAUGUCUUCAGCCCCACGUAGAUGCUUGGAAUUCUCGGGUGCCAA: 0.748
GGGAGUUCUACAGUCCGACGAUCGUGUUUUGGGGGAGCUAUGAUAAGUUUUAUGGCAAACGGUUGGUAUUGUUAACUUUUUAUUGUCAUCAAAAGUUCAUAAAAGUCCUAUUAAUCCCCAUAUUCUUCUACUGUGGAAUUCUCGGGUGCCAA: 0.881

Series 2 — Change: G71F; technique: DHFR PCA, deep sequencing; sample: yeast; baseline: wild-type fitted maximum; reading: higher = stronger binding; endpoint: relative binding score
Target: ABI1, truncated, D143A, DHFR fusion (Arabidopsis thaliana)
Notes: methotrexate growth selection, single substitutions
Starting sequence: PYL1, truncated, DHFR fusion (Arabidopsis thaliana); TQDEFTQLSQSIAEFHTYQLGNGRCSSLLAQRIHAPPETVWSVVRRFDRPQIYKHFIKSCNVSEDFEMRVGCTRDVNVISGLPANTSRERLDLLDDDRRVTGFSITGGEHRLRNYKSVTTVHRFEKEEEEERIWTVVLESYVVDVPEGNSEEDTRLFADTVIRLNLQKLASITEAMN; partner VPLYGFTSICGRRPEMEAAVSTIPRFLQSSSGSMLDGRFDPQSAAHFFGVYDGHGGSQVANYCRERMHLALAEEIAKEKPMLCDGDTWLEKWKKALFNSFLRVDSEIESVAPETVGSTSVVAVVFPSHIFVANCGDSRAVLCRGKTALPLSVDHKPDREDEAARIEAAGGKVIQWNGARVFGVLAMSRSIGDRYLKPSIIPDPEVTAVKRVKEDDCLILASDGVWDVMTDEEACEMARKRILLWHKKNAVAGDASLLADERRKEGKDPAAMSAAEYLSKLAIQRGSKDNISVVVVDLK
added: (+)-ABA 0.39 µM: -3.59%
added: (+)-ABA 710 µM: 55.1%
added: (+)-ABA 58 µM: 12.8%
added: (+)-ABA 0.032 µM: -2.14%
added: (+)-ABA 0.0091 µM: -6.75%
added: (+)-ABA 0.11 µM: 7.99%

Series 3 — observed: enzyme activity; mode: inhibitor; tested at: 0.5 µM; baseline: control; endpoint: remaining activity
Target: Dual specificity protein kinase CLK2 (CLK2, Homo sapiens, UniProt P49760)
Sequence of UniProt P49760 (whole entry, looked up): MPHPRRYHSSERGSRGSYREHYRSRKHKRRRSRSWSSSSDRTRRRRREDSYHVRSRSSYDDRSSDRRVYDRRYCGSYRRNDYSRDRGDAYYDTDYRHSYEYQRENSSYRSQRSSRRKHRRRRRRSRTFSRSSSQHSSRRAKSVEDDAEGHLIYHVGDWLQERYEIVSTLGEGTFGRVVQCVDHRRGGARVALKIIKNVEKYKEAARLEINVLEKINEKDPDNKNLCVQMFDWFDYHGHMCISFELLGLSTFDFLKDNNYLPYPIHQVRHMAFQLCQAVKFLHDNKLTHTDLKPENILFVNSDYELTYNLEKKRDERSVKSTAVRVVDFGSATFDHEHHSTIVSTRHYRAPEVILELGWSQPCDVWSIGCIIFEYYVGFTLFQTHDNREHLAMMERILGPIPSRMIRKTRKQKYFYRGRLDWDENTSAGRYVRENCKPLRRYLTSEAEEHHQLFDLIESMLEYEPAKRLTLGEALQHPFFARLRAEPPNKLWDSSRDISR
COc1ccc(CNC(=O)Nc2ncc([N+](=O)[O-])s2)cc1: 97.4%
O=C1NC(=O)C(c2cn(CCCn3ccnc3)c3ccccc23)=C1Nc1ccccc1: 14.7%
O=S(=O)(c1cccc2cnccc12)N1CCCNCC1: 95.1%
OCC(O)CCON=C1C(c2c(O)[nH]c3ccccc23)=Nc2ccccc21 (stereo not drawn): 92%
Cn1c2ccccc2c2c3c(c4c5ccccc5n(CCC#N)c4c21)CNC3=O: 88.7%
CN(C)c1ccc(C=C2C(=O)Nc3ccccc32)cc1: 99.7%
CNC(=O)c1cc(Oc2ccc(NC(=O)Nc3ccc(Cl)c(C(F)(F)F)c3)cc2)ccn1: 92.8%
N#CC(C#N)=C(N)/C(C#N)=C/c1ccc(O)cc1: 100%
Cc1cccc(-c2[nH]c(C(C)(C)C)nc2-c2ccc3c(c2)OCO3)n1: 95.2%
O=C(Nc1cccc(Nc2cc(Nc3cccc(C(F)(F)F)c3)ncn2)c1)C1CC1: 97.3%
Nc1ncnc2n[nH]c(Nc3ccc(F)cc3)c12: 92.4%
Cc1ccc(Nc2nccc(N(C)c3ccc4c(C)n(C)nc4c3)n2)cc1S(N)(=O)=O: 90.9%
O=C(CCCc1ccc(-c2ccccc2F)cc1)Nc1ccc(O)cc1: 103%
O=C(O)c1ccc2c3c1cccc3c(=O)n1c3ccccc3nc21: 91%

Series 4 — observed: cell-free assay; technique: competition with immobilised ligand; tested at: 1 µM; endpoint: remaining binding
Structure (SMILES): COc1ccc2cc(OCC3(C(=O)O)CN(C(=O)c4ccc(F)cc4)C3)ccc2c1
TGF-beta receptor type-1 (TGFBR1, Homo sapiens, UniProt P36897): 100%
Serine/threonine-protein kinase Chk2 (CHEK2, Homo sapiens, UniProt O96017): 93%
Transient receptor potential cation channel subfamily M member 6 (TRPM6, Homo sapiens, UniProt Q9BX84): 98%
Phosphatidylinositol 4,5-bisphosphate 3-kinase catalytic subunit alpha isoform (PIK3CA, Homo sapiens, UniProt P42336, I800L): 90%
Cyclin-dependent kinase-like 2 (CDKL2, Homo sapiens, UniProt Q92772): 89%
Mitogen-activated protein kinase 8 (MAPK8, Homo sapiens, UniProt P45983): 76%
Muscle, skeletal receptor tyrosine-protein kinase (MUSK, Homo sapiens, UniProt O15146): 72%
Tyrosine-protein kinase Fgr (FGR, Homo sapiens, UniProt P09769): 96%
Atypical kinase COQ8A, mitochondrial (COQ8A, Homo sapiens, UniProt Q8NI60): 100%
Insulin receptor (INSR, Homo sapiens, UniProt P06213): 93%
NT-3 growth factor receptor (NTRK3, Homo sapiens, UniProt Q16288): 98%

A few entries again (series 2):
added: (+)-ABA 58 µM: 12.8%
added: (+)-ABA 0.032 µM: -2.14%
added: (+)-ABA 0.0091 µM: -6.75%
